Measurements collected from several papers.
A part holds a random share of what one study measured.

Set 1 — method: RNA Bind-n-Seq; form: RNA; sample: in vitro; concentration: 365 nM; relative to: no-protein control; direction: higher = stronger binding
Target: RNA binding protein fox-1 homolog 2, RRM domain, GST-SBP tag (RBFOX2, Homo sapiens, UniProt O43251-10, residues 100-194)
Notes: natural RNA segment, single round, ends assumed
Constant ends, left off below: GGGAGUUCUACAGUCCGACGAUC … UGGAAUUCUCGGGUGCCAA
Residues (chain): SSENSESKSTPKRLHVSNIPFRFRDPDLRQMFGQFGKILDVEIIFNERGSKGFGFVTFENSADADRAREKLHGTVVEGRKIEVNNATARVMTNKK
Oligonucleotide | RBNS enrichment (R)
UACCUGAGGUGGGGGGUUCCAUUCUACGAAGAGAGGUGGCGCUCCUUCCUUGACAUCCAGUUCCUCCUUCAGGCUCAAACACCACCUCCUUUCUUCAGGACCUGCACUUA | 1.13
UUUGAUAUGUAAGCUUGACCUAAAGUCAAAGGACCUGUGUAGCAUUUCAGAUUGAGCACUUCACUAUCAAAAAUACUAACAUCACAUGGCUUGAAGAGUAACCAUCAGAG | 1.11
CCAGAUGCCUGAUCAGAUGAGAAGCCCGCCAUGAUACUGUCACAGUGCCUAGAAUGGGCUCUUUAUCCAGUAGACACCACUGUACUUUUUGAUACGAGGGCAGUCUUAAC | 0.373
CCCAUUUAAACAGGAGUCCUCUUCAACUUCAGCUGAUUACAAUAACAAAAGGCGGAAUUGAAUUGUGCGAUGCCAACGGCCUUCUCAUUUACAGGUUUUUUUCCCCCACA | 0.564
UCUCAGCCAACCCGCUCCACUACCCGGCAGGGUACACAUUCGCACCCCUACUUCACAGAGGAAGAAACCUGGAACCAGAGGGGGCGUGCCUGCCAAGCUCACACAGCAGG | 0.579
CUGUUGCUAUUUAGGACCAAAACAUUUUCAGACAGUAGGUAGGCUUUUACAUUCCCUUGCUCCGUUACCUAACGACUUAAACCAGUUCCUUGCUUCCCCCAUCCCUACAC | 1.21
AGCAAACGGUUCUAAAUGAAAAUCAGCAAACCUGAAAGCCUGGGAUUCUGACGCCUACUGGCUCUAUGUAAUUAUUAAGUCACAUUGACCUCUGUGUAGGGCUGUUUUCC | 0.367
UAACAGCUCCAACAAUUUCAGAUCCAUGGGGCUGCUUGACCAUAGACCCUGUUUACUCCAUGCCUGUUCAAAAGUCAUUUUGACUUCUAGCUUUGUUUCACUUUCUUCUU | 2.78
GGAAGGCUUGAGCUGGGGUCCUCCUCUGCGGAGCUUGGAGAAGGUACCCAUCCUGGUCCUAUGCUGGCAGGAACACACGCGAGUGUCACUGAUUGGCCUCCUUCUGGGAU | 0.386
UAGCCCUCUUGAUUCUCACCUGAUAGGGCAACAUCAAAGCUUGGUGUGGGUGUGGGUGCCAGCUCCAAGUUGGCUGAGCCUUUUUCCAGGUUCUACCCGGGCGCCUCUGU | 0.239
CCUUCCCACCUCAAGCGUCUGUAUAACAUUUAGACUACACAUAAAGUUUAUGUGGUACAGACAUGCCCUUGAGGUUGGUGGAAAAUAAAAAACAAGACCCUUCACACAGU | 0.266
GAGCAGGCUUCAAACGAUGUGAAAUAAGCUGAGAUGGCUACAUGAUAUUCUUCAUCUCAUCCUGUGGGAUUCUGCAAUCAUAAAACACAGGAAAGGGGAAUUCUGUGAUG | 0.58

Set 2 — method: RNA Bind-n-Seq; form: RNA; sample: in vitro; concentration: not given; notes: RNA with constant flanks, ends assumed; relative to: input RNA pool; direction: higher = stronger binding
Target: RING finger protein unkempt homolog, zinc fingers 1-6, GST-SBP tag (UNK, Homo sapiens, UniProt Q9C0B0, residues 30-357)
Constant ends, left off below: GGGAGUUCUACAGUCCGACGAUC … CAACAGAGGAUUGAGCAUCA
Construct (chain): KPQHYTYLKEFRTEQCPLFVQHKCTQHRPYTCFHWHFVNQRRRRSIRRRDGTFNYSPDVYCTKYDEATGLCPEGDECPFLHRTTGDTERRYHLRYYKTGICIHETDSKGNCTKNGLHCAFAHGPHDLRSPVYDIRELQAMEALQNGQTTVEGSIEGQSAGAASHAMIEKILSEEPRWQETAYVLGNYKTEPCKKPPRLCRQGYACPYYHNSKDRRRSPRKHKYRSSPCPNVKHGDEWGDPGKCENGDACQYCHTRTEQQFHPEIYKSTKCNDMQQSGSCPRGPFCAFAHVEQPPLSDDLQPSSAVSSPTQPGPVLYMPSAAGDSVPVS
Oligonucleotide | bound/input enrichment
CUGGGGGAGGGCAUCUCCUGCUCCCUCCACCCUCCCAUUCACUCCCCCACCUUCCCCAAUUUCCGUUUCAUGCAAUAAAAAGGCCAAACUUUUAUUCCGUAAAACAUGAAGGACAAAACU | 0.54 ratio
GCAGAGAUGGAGAACAUUAAGGCAAUUGCCACAGUCUCUGAGAAUACUAAGCAAGAAGCUACCGAUGAAGUUAAAAGGCAAUGGAGAGAAGAAGUUGCUUCACUUCAGGCUAUAAUGAAA | 0.155 ratio
UCUCCAUCUUGUUACAUUCCACUGCGGAGACUACAGGAUUUGGCCUCCAUGAUCAAUGCCGAAUAUUUAAGUGGGUCUGCUGAUGGAUCAGAAUCCUUUCAAGACCCUGCAAAAAGUGAU | 0.0946 ratio
UGCCUGGCGCAGGUGUUGCAGAAGGAUGUGGGGAAACGAUUGCAGGUUGGCCAAGAACUGACCGACUAUUUCUCAGACAAACAGAAGUCUGCUGACCUUGAGCAUGACCAGACCAUGUUA | 0.116 ratio
ACUGAAAAUAAAGAUAUUUAUUGGAAAAAUGUGAGAGAGAAGUUGUCAGCAGGAGAGAGCAUCCGUUUGGAUGAAUUCAAGUCAUUUUGCCAUUUUACAACCCACUUGGAAGACUUUGCU | 0.278 ratio
UUUCAUCUUCUGGAGUUAGAAAAGGUCCACGAACUAUGUGAUAACUUCUGCCACCGGUACAUCCGCUGUUUGAAGGGAAAAAUGCCCAUUGACCUCGUGAUUGAUGAGAGAGAUGGAAGC | 0.118 ratio
UUCAAAGAGAAAACCCAGCAGUGGAAAUUGCUUGGUCAAUCUCAAGAUAAUGAAAAGGAAUCCGCUGCUCUCUUCCACCUGUGGCUGGAAACCAAAGACCAGGCCUUCUGUAAGGAAAAU | 0.0822 ratio
UUUCACAUUUGGUGAGUGGGGCAGCAUUUCCUUCUCCCACUGCUGCUGAGAUGGCAGAAAUCCGUCGAAUUCAGUAUGAAAUGGAAUACACCGAAGGUAUUAGUCAGCGAAUGAGGGUCC | 0.28 ratio
CCAACAACAAAAAUUCAAAUCAGGUUAGCAGAUGGGAGUCGUUUGAUACAAAGAUUCAACCGUACACACAGGAUCCUGGAUGUCCGGAACUUUAUUGUACAGUCUCGUCCUGAAUUUGCG | 0.158 ratio
UCUCCGCUGAACCCCAUUUCUUCUGUUUCAUAGUGCAGAAGUAUUCUUUCAACUAUAUUUUCCGUGGACUUGUUUUAAUUUUAGAGGAAUUUCCAGUACAGAUGCUGUGAGCUGACAUGG | 2.12 ratio
AGGGCAGUGGUAAAAAAUAAUCUUGCCCCACUUUUGAUGUGCAAGGAAUUGGUCACCAUUCCGUAUAUGUUUACUGGCUUCAUCACGGACCCUUAUGUCAACAGGUUCUUUCCAUUCCUA | 0.136 ratio

Set 3 — method: protein binding microarray; form: double-stranded DNA, one strand shown; sample: in vitro; concentration: not given; relative to: not given; direction: higher = stronger binding
Target: Histone acetyltransferase KAT6A, both winged helices, GST fusion (KAT6A, Homo sapiens, UniProt Q92794, residues 1-181)
Notes: 8-mer, flanks averaged, mean of 2 arrays, mostly near background
Construct (chain): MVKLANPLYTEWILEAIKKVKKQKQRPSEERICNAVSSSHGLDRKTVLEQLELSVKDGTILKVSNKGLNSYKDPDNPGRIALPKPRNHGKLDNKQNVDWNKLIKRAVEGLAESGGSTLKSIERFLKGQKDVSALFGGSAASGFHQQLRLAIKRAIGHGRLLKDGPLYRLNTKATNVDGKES
Oligonucleotide | E-score
AGCCCCAC | -0.229
CGCCGTAC | 0.34
AGGGCGAG | -0.0347
AGTACGAG | -0.0634
CGTAGGAC | 0.0807
AAATATTT | -0.139
TCGGTGAA | 0.0682
CATCTGCG | 0.0544
AGCAACTG | -0.0668
CGCCGCCG | 0.365
CCGAACCA | 0.0625
CTTAGTAA | 0.00734
GTATCTAA | 0.123
CTTTCACA | -0.0562
CCTCTGGC | -0.203
CGCGTAAG | 0.298
ACACATGC | 0.0253
CCCCGGTC | 0.0345
ACGAGAAC | 0.00903

Set 4 — method: universal PBM; form: double-stranded DNA, one strand shown; sample: in vitro; concentration: not given; direction: higher = stronger binding
Target: Sal-like protein 4, full length isoform B (SALL4, Homo sapiens, UniProt Q9UJQ4-2, residues 1-616)
Notes: 8-mer, flanks averaged, mean of replicates
Target sequence (chain): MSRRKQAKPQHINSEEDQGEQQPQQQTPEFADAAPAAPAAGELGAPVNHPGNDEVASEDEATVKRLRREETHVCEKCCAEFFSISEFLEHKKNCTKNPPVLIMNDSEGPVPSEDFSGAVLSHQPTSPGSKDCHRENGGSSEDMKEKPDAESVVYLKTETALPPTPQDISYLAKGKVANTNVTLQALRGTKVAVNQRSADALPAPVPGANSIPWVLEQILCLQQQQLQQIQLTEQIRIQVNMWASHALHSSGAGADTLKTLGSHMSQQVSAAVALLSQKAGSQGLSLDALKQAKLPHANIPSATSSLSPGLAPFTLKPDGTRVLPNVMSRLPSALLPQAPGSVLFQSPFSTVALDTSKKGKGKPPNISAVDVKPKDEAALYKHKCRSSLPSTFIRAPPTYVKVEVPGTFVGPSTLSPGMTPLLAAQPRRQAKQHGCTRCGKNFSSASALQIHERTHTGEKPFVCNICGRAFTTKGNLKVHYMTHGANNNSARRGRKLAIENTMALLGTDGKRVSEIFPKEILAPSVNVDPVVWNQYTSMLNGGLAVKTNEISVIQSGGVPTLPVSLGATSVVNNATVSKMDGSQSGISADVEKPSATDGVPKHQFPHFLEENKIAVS
Oligonucleotide | E-score
TCGCTAAA | 0.0734
CACCCCCG | -0.153
AAACAGGA | 0.0906
CGACGGCA | -0.363
CGAAGTTC | -0.0165
CTCTAATC | -0.0474
AGGCACTC | -0.189
AACTGCAA | -0.0683
CCGACAGC | -0.324
ACAACTAC | 0.102
AAGGTTGC | -0.133
GCCATATA | 0.252
CCCGATCG | -0.21
GGTAGCCA | -0.188
AGGTCGAG | -0.113
ACGCACAT | 0.121
ACACAGAG | -0.0414
AACGGTTA | 0.122
AAGTTCGT | -0.112
CCCCAGAG | -0.257
CTAATAAA | 0.331
CTCGGTGC | -0.378
AAAGAGGA | -0.172
CTCATGGC | -0.179
CTTTGACA | 0.112

Set 5 — method: competition protein-binding microarray; form: double-stranded DNA, one strand shown; sample: in vitro; concentration: 2 µM; together with: Pho4 competitor, 0.05 µM; direction: higher = stronger binding; constant ends, left off below: … GTCTTGATTCGCTTGACGCTGCTG
Target: Centromere-binding protein 1, full length, His-tagged (CBF1, Saccharomyces cerevisiae, UniProt P17106, residues 1-351)
Sequence of UniProt P17106 (whole entry, looked up): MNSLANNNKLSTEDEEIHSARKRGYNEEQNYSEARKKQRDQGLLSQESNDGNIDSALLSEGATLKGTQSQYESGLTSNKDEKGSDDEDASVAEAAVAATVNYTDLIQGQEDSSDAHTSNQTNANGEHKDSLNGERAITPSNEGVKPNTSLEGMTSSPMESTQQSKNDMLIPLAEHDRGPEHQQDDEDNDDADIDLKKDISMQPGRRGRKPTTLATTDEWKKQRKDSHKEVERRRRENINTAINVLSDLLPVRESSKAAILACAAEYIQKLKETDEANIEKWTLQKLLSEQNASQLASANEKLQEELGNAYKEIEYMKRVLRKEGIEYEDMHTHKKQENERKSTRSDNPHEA
Notes: whole 60-bp probe, lowest competitor level
Oligonucleotide | fluorescence intensity [a.u.]
CTTTCCCGATCTTTTCACGTGTAATTAGCACATTTG | 672
AAAGCGGTAATTTGGGTAGTGGGTGCAGATATCTAT | 108
ACCACCAAAACCGACCACCGGCGAGCGGATATGCGG | 69.9
GGTGATAGCCATATCTTCGTGCTTTTGTTGCGATTG | 77.8
CTTTCCCGATCTTTTCACGTGAAGTTAGCACATTTG | 784
TGCGCAACAACTTGTTACGTGGGTGTATGTCTAGAA | 64.5
GTCTTGTCTCATTGTCGCGTGGGTGTCCCCACTTCA | 107
CATGCCTTTTGTTCGTCCGTGACTCGGTCCTTCAAT | 117
TCCTGTATTTTAAAGCACGCAAGGCTGAAATAAACG | 85.4
ACCTTAACGCGAAAACGCGTGAAATTGAAATTTAGC | 113
CATACCCAACCTTGTTAAGTGGGTGAAGATATTTGT | 78.8
AAAGCGGTAATTTGTCACGAGACTTCACATATCTAT | 1470
CTACTACAGATATTACATGTGGCGAAAAAGACAAGA | 101
CTTTCCCGATCTTGGAAAGTGGGTGTAGCACATTTG | 75.7
CTAACGAAGGTTTGGAATGTGGGTGACAAGCCAAGT | 74.7
TCAAATTAGACAATTGGCGTGGCCGGACGAGATCGC | 57.7
TCCAATCTTTTCCGTCACATGTACACACTCATATAC | 837
